Experimental data of several laboratories.
Lines come from different studies, so protocols differ.

SMILES	tested on	test	system	setting	quantity	value
COC[C@@H](NC(C)=O)C(=O)NCc1ccccc1		fluorescence quenching	human healthy male, plasma	oral, 100 mg single, up to 48 h	AUC(0-t)	45700 ng·h/mL
OCc1ncc2n1-c1ccc(Cl)cc1C(c1ccccc1F)=NC2			human, plasma	oral, 7.5 mg of midazolam, day 19, geometric mean, no amenamevir	AUC(0-t)	42.2 ng·h/mL
C[C@@](Cc1ccc(O)c(O)c1)(NN)C(=O)O		item: levodopa	healthy human volunteers, plasma	subcutaneous, dose not given, 24 h infusion, geometric mean, crossover	AUC(0-t)	2670 ng·h/mL
OCc1ncc2n1-c1ccc(Cl)cc1C(c1ccccc1F)=NC2			human, plasma	oral, 2.5 mg	AUC(0-t)	9.5 ng·h/mL
O=c1ccc2ncc(=O)n3c2n1C[C@H]3CN1CCC(NCc2cc3c(cn2)OCCC3)CC1			healthy human volunteers, plasma	oral, 1500 mg, arithmetic mean, alone	AUC(0-t)	18000 ng·h/mL
Cc1ccc(F)c(NC(=O)Nc2ccc(-c3cccc4[nH]nc(N)c34)cc2)c1	human coronavirus OC43	virus-induced cell killing	MRC-5	maximum over 10 doses	maximum inhibition	0.313%
OCc1ncc2n1-c1ccc(Cl)cc1C(c1ccccc1F)=NC2		CYP3A4 probe metabolite	human, plasma	oral, 2 mg midazolam, day -7, probe cocktail alone, geometric mean	AUC(0-t)	135 ng·h/mL
CC(=O)c1c(C)c2cnc(Nc3ccc(C4CCN(CCS(C)(=O)=O)CC4)cn3)nc2n(C2CCCC2)c1=O			human, dose-escalation trial, plasma	oral, 50 mg twice daily, day 1, single dose	AUC(0-t)	584 ng·h/mL
COc1ccc(C[C@@H]2NC(=O)[C@H]([C@@H](C)O)NC(=O)[C@@H]3[C@@H]4CCN3C(=O)[C@@H]3Cc5cn(c6ccc(F)cc56)CCCCCCN(Cc5ccc(cc5)CCNC(=O)[C@]5(C)CCCN5C2=O)C(=O)CCC(=O)N[C@@H](C)C(=O)N[C@H](CNC(=O)CCCCC[N+](C)(C)C)C(=O)N[C@@H](Cc2cccc(c2)CNC(=O)CO4)C(=O)N3)cc1			human, plasma	oral, 100 mg, with: sodium caprate 1800 mg	AUC(0-t)	0.855 µM·h
CCC1=C[C@@H]2CN(C1)Cc1c([nH]c3ccccc13)[C@@](C(=O)OC)(c1cc3c(cc1OC)N(C)[C@H]1[C@@](O)(C(=O)OC)[C@H](OC(C)=O)[C@]4(CC)C=CCN5CC[C@]31[C@@H]54)C2	human coronavirus OC43	virus-induced cell killing	MRC-5	maximum over 10 doses	maximum inhibition	0%
C[C@H](NC(=O)c1c(C(F)F)nn(C)c1Oc1cccc(C(F)(F)F)c1)c1ccc(C(=O)O)cc1			human, plasma	500 mg, cycle 1 day 8, mean	AUC(0-t)	6060 ng·h/mL
O=C(O)C[C@H](O)C[C@H](O)/C=C/c1c(C2CC2)nc2ccccc2c1-c1ccc(F)cc1			human, plasma	oral, 2 mg	AUC(0-t)	63.4 ng·h/mL

A few entries again:
SMILES	tested on	test	system	setting	quantity	value
O=C(O)C[C@H](O)C[C@H](O)/C=C/c1c(C2CC2)nc2ccccc2c1-c1ccc(F)cc1			human, plasma	oral, 2 mg	AUC(0-t)	63.4 ng·h/mL
